Experimental data from different studies.
Each numbered part is a random draw from the data of one study; scales do not carry over between parts.
Sequence of UniProt P50613 (whole entry, looked up): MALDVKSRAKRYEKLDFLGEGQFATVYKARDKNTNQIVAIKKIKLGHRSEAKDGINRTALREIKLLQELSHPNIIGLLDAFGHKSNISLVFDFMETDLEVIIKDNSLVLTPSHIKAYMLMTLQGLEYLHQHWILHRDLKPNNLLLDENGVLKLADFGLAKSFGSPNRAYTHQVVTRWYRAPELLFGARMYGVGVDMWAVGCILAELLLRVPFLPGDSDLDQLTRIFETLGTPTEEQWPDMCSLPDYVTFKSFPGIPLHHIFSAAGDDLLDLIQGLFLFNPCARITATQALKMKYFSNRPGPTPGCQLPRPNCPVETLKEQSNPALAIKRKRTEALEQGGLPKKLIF
Sequence of UniProt Q14289 (whole entry, looked up): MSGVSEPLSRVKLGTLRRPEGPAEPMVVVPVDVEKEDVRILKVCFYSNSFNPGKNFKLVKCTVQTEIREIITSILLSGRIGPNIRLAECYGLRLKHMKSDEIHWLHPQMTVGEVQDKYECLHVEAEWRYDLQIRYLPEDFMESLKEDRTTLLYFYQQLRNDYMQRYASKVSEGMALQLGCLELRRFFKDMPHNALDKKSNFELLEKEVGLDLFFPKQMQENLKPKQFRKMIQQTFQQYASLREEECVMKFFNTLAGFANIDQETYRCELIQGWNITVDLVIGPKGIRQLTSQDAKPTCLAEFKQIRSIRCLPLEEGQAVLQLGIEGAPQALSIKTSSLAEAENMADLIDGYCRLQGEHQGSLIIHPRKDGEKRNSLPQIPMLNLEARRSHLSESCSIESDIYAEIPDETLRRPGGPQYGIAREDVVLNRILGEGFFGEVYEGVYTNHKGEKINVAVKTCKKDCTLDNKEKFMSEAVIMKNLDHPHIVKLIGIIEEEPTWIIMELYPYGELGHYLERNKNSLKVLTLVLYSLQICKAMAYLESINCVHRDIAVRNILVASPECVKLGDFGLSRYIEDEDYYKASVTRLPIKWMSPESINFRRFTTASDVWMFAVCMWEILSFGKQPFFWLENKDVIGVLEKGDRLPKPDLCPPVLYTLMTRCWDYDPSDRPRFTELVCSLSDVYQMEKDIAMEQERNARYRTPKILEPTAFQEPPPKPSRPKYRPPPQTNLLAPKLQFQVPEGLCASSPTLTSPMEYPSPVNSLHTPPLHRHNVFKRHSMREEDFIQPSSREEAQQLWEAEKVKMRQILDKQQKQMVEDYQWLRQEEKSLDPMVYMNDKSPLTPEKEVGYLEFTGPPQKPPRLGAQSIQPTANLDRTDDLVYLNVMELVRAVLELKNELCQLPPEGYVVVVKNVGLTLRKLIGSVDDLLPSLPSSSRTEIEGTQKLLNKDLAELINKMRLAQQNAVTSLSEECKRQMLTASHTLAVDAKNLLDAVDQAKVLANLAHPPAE
Sequence of UniProt P23458 (whole entry, looked up): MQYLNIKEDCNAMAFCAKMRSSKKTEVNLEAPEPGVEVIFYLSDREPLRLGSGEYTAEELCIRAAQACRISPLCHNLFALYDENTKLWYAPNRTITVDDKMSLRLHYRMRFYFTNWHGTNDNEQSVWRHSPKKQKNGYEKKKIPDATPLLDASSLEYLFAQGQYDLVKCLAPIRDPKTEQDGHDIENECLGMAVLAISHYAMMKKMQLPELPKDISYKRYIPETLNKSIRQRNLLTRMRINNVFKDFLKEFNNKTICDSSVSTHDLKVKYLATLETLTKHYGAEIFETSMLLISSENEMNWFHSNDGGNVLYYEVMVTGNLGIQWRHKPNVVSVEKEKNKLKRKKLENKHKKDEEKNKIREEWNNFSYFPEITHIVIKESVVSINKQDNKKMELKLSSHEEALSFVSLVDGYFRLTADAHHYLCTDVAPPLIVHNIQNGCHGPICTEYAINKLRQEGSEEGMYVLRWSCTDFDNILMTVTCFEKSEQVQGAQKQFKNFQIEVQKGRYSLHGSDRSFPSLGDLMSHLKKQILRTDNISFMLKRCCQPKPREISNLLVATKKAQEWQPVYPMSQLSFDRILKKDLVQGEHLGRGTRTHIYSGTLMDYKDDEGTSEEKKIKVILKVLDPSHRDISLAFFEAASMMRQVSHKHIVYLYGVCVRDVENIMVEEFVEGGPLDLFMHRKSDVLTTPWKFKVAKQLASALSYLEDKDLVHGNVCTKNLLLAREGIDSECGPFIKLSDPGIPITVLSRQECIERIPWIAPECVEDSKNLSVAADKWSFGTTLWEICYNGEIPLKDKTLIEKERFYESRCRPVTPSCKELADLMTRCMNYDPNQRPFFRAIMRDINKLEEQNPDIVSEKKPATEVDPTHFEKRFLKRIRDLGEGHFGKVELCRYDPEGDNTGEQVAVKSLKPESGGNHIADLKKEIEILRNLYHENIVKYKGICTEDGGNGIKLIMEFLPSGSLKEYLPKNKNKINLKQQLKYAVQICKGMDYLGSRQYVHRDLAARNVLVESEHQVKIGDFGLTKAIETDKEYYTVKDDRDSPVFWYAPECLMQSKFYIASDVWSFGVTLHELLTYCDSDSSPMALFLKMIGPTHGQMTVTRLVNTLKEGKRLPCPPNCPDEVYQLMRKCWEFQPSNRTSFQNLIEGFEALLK
Sequence of UniProt P29317 (whole entry, looked up): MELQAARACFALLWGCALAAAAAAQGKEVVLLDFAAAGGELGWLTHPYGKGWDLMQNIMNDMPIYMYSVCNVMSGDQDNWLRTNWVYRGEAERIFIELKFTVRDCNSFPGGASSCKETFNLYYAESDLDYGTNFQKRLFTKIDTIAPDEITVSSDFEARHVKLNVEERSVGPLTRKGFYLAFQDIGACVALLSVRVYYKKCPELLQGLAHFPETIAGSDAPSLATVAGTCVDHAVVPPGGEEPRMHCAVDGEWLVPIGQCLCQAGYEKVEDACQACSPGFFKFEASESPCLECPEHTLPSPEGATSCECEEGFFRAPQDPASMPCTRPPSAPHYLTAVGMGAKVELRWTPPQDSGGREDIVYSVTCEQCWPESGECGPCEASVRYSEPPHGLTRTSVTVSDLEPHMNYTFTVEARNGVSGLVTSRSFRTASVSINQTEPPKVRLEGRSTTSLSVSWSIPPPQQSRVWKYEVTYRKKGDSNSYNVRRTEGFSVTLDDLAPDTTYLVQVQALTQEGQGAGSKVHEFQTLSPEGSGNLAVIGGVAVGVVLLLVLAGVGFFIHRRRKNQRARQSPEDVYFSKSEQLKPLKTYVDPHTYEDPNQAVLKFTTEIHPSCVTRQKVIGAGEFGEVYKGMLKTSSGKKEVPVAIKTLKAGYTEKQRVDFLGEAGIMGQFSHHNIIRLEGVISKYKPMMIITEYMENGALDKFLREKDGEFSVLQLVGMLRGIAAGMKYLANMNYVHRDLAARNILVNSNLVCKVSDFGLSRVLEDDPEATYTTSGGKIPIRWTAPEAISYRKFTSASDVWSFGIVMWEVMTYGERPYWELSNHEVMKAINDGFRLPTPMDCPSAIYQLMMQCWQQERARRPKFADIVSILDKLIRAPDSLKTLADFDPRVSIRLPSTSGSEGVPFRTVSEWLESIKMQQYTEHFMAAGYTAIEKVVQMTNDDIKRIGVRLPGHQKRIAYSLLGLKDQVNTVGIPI

Block 1 — cell line: HaCaT; concentration: 100 µM; time: 36 h
| Compound | viability [%] |
| --- | --- |
| CCCCC(=O)O[C@]1(C(=O)CO)CC[C@H]2[C@@H]3CCC4=CC(=O)CC[C@]4(C)[C@H]3[C@@H](O)C[C@@]21C | 52.8 |
| C[C@@H](Oc1cc(-c2cnn(C3CCNCC3)c2)cnc1N)c1c(Cl)ccc(F)c1Cl | 5.11 |
| CCCCC1C(=O)N(c2ccccc2)N(c2ccccc2)C1=O | 97.4 |
| O=C(COc1ccc(Cl)cc1)N1CCN(Cc2ccc3c(c2)OCO3)CC1 | 53 |
| NC(=O)N1c2ccccc2C=Cc2ccccc21 | 89.9 |
| C[C@@](Cc1ccc(O)c(O)c1)(NN)C(=O)O | 112 |
| CC[C@H]1OC(=O)[C@@](C)(F)C(=O)[C@H](C)[C@@H](O[C@@H]2O[C@H](C)C[C@H](N(C)C)[C@H]2O)[C@](C)(OC)C[C@@H](C)C(=O)[C@H](C)[C@H]2N(CCCCn3cc(-c4cccc(N)c4)nn3)C(=O)O[C@]12C | 6.12 |
| O=C(OCc1ccccc1)c1ccccc1 | 65.7 |
| NC[C@@H]1O[C@H](O[C@H]2[C@@H](O)[C@H](O[C@@H]3[C@@H](O)[C@H](N)C[C@H](N)[C@H]3O[C@H]3O[C@H](CO)[C@@H](O)[C@H](O)[C@H]3N)O[C@@H]2CO)[C@H](N)[C@@H](O)[C@@H]1O | 86.3 |
| COC(=O)C1=C(C)NC(C)=C(C(=O)OC(C)C)C1c1cccc2nonc12 (stereo not shown) | 39.9 |
| CC(=O)Oc1cc2c(s1)CCN(C(C(=O)C1CC1)c1ccccc1F)C2 (stereo not shown) | 98 |
| Cc1ccc(-c2ncc(Cl)cc2-c2ccc(S(C)(=O)=O)cc2)cn1 | 84.7 |
| CC(=O)N1CCN(c2ccc(OC[C@@H]3CO[C@@](Cn4ccnc4)(c4ccc(Cl)cc4Cl)O3)cc2)CC1 (racemic) | 4.36 |
| N[C@@H](C(=O)N[C@@H]1C(=O)N2C(C(=O)O)=C(Cl)CS[C@H]12)c1ccccc1 | 98.3 |

Block 2 — concentration: 1 µM
SMILES: N#Cc1ccc(Nc2ccc3[nH]c(=O)[nH]c3c2)c(Cl)c1
| target | effect on | method | remaining binding [%] |
| --- | --- | --- | --- |
| PRPF4B (Homo sapiens, UniProt Q13523) | cell-free assay | competition with immobilised ligand | 99 |
| PIK3CA (Homo sapiens, UniProt P42336, E545K) | cell-free assay | competition with immobilised ligand | 79 |
| EPHB3 (Homo sapiens, UniProt P54753) | cell-free assay | competition with immobilised ligand | 100 |
| CDKL3 (Homo sapiens, UniProt Q8IVW4) | binding | competition with immobilised ligand | 80 |
| PKMYT1 (Homo sapiens, UniProt Q99640) | cell-free assay | competition with immobilised ligand | 100 |
| MAPK4 (Homo sapiens, UniProt P31152) | cell-free assay | competition with immobilised ligand | 100 |
| MAP4K3 (Homo sapiens, UniProt Q8IVH8) | cell-free assay | competition with immobilised ligand | 88 |
| Tyrosine-protein kinase ABL1, non-phosphorylated (ABL1, Homo sapiens, UniProt P00519, T315I) | cell-free assay | competition with immobilised ligand | 90 |
| Tyrosine-protein kinase ABL1, phosphorylated (ABL1, Homo sapiens, UniProt P00519, F317I) | binding | – | 81 |
| Tyrosine-protein kinase JAK1, JH2 (JAK1, Homo sapiens, UniProt P23458) | cell-free assay | competition with immobilised ligand | 97 |
| EPHA2 (Homo sapiens, UniProt P29317) | cell-free assay | competition with immobilised ligand | 84 |
| BRAF (Homo sapiens, UniProt P15056) | cell-free assay | competition with immobilised ligand | 100 |
| TYRO3 (Homo sapiens, UniProt Q06418) | cell-free assay | competition with immobilised ligand | 62 |
| CDK7 (Homo sapiens, UniProt P50613) | cell-free assay | competition with immobilised ligand | 99 |
| CSNK1G2 (Homo sapiens, UniProt P78368) | cell-free assay | competition with immobilised ligand | 100 |
| PTK2B (Homo sapiens, UniProt Q14289) | cell-free assay | competition with immobilised ligand | 100 |
| GSK3A (Homo sapiens, UniProt P49840) | cell-free assay | competition with immobilised ligand | 100 |

Block 3 — effect on: enzyme activity; action: inhibitor; concentration: 0.5 µM; relative to: control
Target: Fibroblast growth factor receptor 2 (FGFR2, Homo sapiens, UniProt P21802)
Sequence of UniProt P21802 (whole entry, looked up): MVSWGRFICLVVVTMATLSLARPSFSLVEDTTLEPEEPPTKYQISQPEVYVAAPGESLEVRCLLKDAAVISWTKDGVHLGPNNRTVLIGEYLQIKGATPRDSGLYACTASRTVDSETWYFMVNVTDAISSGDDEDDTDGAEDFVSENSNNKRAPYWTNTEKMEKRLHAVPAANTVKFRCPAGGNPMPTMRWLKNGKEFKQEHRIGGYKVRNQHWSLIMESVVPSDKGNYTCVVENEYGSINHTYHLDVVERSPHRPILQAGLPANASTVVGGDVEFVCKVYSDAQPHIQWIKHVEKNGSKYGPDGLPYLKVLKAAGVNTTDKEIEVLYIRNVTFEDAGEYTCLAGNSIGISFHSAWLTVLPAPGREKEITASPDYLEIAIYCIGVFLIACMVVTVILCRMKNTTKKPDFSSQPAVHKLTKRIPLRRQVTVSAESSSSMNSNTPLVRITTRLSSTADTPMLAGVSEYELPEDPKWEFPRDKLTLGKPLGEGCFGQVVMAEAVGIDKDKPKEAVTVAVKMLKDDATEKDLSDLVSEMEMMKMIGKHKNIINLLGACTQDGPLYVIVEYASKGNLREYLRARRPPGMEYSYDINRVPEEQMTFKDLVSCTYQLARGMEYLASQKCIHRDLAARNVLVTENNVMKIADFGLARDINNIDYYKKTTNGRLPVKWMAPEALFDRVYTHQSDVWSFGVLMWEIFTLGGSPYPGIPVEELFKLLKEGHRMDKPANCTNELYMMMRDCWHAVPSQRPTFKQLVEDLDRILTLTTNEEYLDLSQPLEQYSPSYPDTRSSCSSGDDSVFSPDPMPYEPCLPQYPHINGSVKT
| SMILES | remaining activity [%] |
| --- | --- |
| O=C1NC(=O)C(c2c[nH]c3ccccc23)=C1c1c[nH]c2ccccc12 | 89.4 |
| O=C1Cc2c([nH]c3ccc([N+](=O)[O-])cc23)-c2ccccc2N1 | 96.7 |
| Cc1ccc(NC2=CC(=O)c3sc(C)nc3C2=O)cc1 | 91 |
| Oc1ccc(Nc2nc(-c3ccc(Cl)cc3)cs2)cc1 | 104 |
| CCc1[nH]c(-c2ccc(OC)cc2)nc1-c1ccncc1 | 104 |
| Nc1nccc(-c2c(-c3ccc(F)cc3)ncn2C2CCNCC2)n1 | 104 |
| Cc1cc(Nc2nc(-c3ccccc3)nc3ccccc23)n[nH]1 | 83.7 |
| Nc1ncnc2c1cnn2-c1ccccc1 | 100 |
| CC(C)(C)n1nc(Cc2cccc3ccccc23)c2c(N)ncnc21 | 88.3 |
| CC(=O)c1ccc(N2CCOCC2)cc1O | 108 |
| CSc1nc(-c2ccnc(N[C@@H](C)c3ccccc3)c2)c(-c2ccc(F)cc2)[nH]1 (racemic) | 95.2 |
| COc1cc(Nc2c(C#N)cnc3cc(OCCCN4CCN(C)CC4)c(OC)cc23)c(Cl)cc1Cl | 58.1 |
| Fc1ccc(-c2nc3n(c2-c2ccncc2)CCS3)cc1 | 106 |
| CCCC(=O)Oc1ccc2[nH]c(C(=O)c3cc4ccccc4[nH]3)cc2c1 | 100 |
| Cc1cncc2cccc(S(=O)(=O)N3CCCN(C(=O)CN)C[C@@H]3C)c12 | 98.4 |
| CC[n+]1c(/C=C/N(C)c2ccccc2)n(-c2ccccc2)c2ccc(-c3nc4ccccc4s3)cc21 | 100 |
| CC#CC(=O)Nc1cc2c(Nc3ccc(F)c(Cl)c3)ncnc2cn1 | 101 |
| O=S(=O)(NCCNC/C=C/c1ccc(Br)cc1)c1cccc2cnccc12 | 95.1 |
| COc1ccc(S(=O)(=O)N(CCO)c2ccccc2CN(C)CC=Cc2ccc(Cl)cc2)cc1 | 98.6 |
| N#CC(=C(N)Sc1ccc(N)cc1)c1ccccc1C(F)(F)F | 101 |
| NC(=O)c1ccc(N(C(N)=O)c2c(F)cccc2F)nc1-c1ccc(F)cc1F | 99.5 |

Block 4 — effect on: enzyme activity; action: inhibitor; concentration: 10 µM
Target: Calcium/calmodulin-dependent protein kinase type II subunit alpha (CAMK2A, Homo sapiens, UniProt Q9UQM7)
Sequence of UniProt Q9UQM7 (whole entry, looked up): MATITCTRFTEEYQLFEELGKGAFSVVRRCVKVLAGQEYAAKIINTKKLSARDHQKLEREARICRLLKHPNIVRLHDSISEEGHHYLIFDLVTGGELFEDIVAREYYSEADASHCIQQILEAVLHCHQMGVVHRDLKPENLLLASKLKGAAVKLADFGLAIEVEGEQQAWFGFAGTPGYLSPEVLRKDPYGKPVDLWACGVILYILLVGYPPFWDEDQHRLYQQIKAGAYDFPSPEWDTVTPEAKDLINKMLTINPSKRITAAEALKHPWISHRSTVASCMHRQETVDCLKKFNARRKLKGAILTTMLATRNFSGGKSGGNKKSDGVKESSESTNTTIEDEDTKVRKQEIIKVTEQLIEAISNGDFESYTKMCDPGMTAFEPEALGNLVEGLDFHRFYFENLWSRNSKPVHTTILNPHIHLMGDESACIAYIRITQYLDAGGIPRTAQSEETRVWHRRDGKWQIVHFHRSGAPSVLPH
| Structure (SMILES) | inhibition |
| --- | --- |
| Cc1nc2c(O[C@H]3CCOc4cc(F)cc(F)c43)cc(C(=O)N(C)C)cc2[nH]1 | -4% |
| COc1ccccc1C=O | 28% |
| COCCOC(=O)C1=C(C)NC(C)=C(C(=O)OC(C)C)C1c1cccc([N+](=O)[O-])c1 (stereo not shown) | -2% |
| CC(C)OC(=O)C(C)(C)Oc1ccc(C(=O)c2ccc(Cl)cc2)cc1 | -11% |
| COc1ccc(-c2cc(=O)c3c(O)cc(O[C@@H]4O[C@H](CO)[C@@H](O)[C@H](O)[C@H]4O)cc3o2)cc1 | -1% |
| N[C@@H](Cc1ccc(O)c(I)c1)C(=O)O | -4% |
| COc1c(O)cc2c(c1O)[C@@H]1O[C@H](CO)[C@@H](O)[C@H](O)[C@H]1OC2=O | 13% |
| Cc1cn([C@H]2C[C@H](O)[C@@H](COP(=O)(O)O)O2)c(=O)[nH]c1=O | 14% |
| CN1CC[C@]23c4ccccc4N[C@H]1[C@]21CCN(C)[C@H]3Nc2ccccc21 | -13% |
| CN(C)C(=O)Oc1ccc[n+](C)c1 | -4% |
| CN1C(=O)[C@H](O)C[C@H]1c1cccnc1 | 43% |
| COc1cc(/C=C/C(=O)OC2[C@H](O)CC(O)(C(=O)O)C[C@H]2O)ccc1O (stereo partly shown) | 10% |

Excerpt of the above (block 2):
| target | effect on | method | remaining binding [%] |
| --- | --- | --- | --- |
| PRPF4B (Homo sapiens, UniProt Q13523) | cell-free assay | competition with immobilised ligand | 99 |
| PIK3CA (Homo sapiens, UniProt P42336, E545K) | cell-free assay | competition with immobilised ligand | 79 |
| EPHB3 (Homo sapiens, UniProt P54753) | cell-free assay | competition with immobilised ligand | 100 |
| CDKL3 (Homo sapiens, UniProt Q8IVW4) | binding | competition with immobilised ligand | 80 |
| PKMYT1 (Homo sapiens, UniProt Q99640) | cell-free assay | competition with immobilised ligand | 100 |
| MAPK4 (Homo sapiens, UniProt P31152) | cell-free assay | competition with immobilised ligand | 100 |
| MAP4K3 (Homo sapiens, UniProt Q8IVH8) | cell-free assay | competition with immobilised ligand | 88 |
| Tyrosine-protein kinase ABL1, non-phosphorylated (ABL1, Homo sapiens, UniProt P00519, T315I) | cell-free assay | competition with immobilised ligand | 90 |
